Results of several laboratories.
Numbered parts are unrelated; each lists some results of a single study. Values joined by “and” are separate records of one study, mostly repeats; a detail may differ.
UniProt Q8N568, sequence (whole entry, looked up): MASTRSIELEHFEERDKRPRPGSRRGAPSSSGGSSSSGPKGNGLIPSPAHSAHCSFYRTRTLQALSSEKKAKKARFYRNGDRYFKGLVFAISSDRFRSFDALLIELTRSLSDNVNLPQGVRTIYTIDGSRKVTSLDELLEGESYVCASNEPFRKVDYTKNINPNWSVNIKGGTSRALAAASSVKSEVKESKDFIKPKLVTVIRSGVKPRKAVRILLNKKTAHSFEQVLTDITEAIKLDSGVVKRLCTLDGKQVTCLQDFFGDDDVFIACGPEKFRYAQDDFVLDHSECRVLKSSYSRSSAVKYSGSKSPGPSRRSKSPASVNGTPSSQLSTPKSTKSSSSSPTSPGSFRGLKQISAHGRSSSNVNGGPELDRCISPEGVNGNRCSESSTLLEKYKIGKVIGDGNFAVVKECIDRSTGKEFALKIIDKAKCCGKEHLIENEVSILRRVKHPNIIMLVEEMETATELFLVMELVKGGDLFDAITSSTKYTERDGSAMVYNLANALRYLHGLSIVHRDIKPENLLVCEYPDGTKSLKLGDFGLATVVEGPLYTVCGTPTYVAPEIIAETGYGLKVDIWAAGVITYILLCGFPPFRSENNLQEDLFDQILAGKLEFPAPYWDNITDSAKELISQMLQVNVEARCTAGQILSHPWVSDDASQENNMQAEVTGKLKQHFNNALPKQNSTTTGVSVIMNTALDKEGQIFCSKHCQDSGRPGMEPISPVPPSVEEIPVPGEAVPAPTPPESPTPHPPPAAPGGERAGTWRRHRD
UniProt O15264, sequence (whole entry, looked up): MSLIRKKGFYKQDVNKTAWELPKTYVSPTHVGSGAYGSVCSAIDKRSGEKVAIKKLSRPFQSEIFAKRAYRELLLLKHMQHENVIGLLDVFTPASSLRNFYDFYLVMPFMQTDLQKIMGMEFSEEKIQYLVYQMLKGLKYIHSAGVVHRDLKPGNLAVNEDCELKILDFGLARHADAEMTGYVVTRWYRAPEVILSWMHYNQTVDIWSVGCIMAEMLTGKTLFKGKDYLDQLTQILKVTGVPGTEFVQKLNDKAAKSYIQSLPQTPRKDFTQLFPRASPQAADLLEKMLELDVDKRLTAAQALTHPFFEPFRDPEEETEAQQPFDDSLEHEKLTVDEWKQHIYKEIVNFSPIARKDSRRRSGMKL
UniProt Q9H4A3, sequence (whole entry, looked up): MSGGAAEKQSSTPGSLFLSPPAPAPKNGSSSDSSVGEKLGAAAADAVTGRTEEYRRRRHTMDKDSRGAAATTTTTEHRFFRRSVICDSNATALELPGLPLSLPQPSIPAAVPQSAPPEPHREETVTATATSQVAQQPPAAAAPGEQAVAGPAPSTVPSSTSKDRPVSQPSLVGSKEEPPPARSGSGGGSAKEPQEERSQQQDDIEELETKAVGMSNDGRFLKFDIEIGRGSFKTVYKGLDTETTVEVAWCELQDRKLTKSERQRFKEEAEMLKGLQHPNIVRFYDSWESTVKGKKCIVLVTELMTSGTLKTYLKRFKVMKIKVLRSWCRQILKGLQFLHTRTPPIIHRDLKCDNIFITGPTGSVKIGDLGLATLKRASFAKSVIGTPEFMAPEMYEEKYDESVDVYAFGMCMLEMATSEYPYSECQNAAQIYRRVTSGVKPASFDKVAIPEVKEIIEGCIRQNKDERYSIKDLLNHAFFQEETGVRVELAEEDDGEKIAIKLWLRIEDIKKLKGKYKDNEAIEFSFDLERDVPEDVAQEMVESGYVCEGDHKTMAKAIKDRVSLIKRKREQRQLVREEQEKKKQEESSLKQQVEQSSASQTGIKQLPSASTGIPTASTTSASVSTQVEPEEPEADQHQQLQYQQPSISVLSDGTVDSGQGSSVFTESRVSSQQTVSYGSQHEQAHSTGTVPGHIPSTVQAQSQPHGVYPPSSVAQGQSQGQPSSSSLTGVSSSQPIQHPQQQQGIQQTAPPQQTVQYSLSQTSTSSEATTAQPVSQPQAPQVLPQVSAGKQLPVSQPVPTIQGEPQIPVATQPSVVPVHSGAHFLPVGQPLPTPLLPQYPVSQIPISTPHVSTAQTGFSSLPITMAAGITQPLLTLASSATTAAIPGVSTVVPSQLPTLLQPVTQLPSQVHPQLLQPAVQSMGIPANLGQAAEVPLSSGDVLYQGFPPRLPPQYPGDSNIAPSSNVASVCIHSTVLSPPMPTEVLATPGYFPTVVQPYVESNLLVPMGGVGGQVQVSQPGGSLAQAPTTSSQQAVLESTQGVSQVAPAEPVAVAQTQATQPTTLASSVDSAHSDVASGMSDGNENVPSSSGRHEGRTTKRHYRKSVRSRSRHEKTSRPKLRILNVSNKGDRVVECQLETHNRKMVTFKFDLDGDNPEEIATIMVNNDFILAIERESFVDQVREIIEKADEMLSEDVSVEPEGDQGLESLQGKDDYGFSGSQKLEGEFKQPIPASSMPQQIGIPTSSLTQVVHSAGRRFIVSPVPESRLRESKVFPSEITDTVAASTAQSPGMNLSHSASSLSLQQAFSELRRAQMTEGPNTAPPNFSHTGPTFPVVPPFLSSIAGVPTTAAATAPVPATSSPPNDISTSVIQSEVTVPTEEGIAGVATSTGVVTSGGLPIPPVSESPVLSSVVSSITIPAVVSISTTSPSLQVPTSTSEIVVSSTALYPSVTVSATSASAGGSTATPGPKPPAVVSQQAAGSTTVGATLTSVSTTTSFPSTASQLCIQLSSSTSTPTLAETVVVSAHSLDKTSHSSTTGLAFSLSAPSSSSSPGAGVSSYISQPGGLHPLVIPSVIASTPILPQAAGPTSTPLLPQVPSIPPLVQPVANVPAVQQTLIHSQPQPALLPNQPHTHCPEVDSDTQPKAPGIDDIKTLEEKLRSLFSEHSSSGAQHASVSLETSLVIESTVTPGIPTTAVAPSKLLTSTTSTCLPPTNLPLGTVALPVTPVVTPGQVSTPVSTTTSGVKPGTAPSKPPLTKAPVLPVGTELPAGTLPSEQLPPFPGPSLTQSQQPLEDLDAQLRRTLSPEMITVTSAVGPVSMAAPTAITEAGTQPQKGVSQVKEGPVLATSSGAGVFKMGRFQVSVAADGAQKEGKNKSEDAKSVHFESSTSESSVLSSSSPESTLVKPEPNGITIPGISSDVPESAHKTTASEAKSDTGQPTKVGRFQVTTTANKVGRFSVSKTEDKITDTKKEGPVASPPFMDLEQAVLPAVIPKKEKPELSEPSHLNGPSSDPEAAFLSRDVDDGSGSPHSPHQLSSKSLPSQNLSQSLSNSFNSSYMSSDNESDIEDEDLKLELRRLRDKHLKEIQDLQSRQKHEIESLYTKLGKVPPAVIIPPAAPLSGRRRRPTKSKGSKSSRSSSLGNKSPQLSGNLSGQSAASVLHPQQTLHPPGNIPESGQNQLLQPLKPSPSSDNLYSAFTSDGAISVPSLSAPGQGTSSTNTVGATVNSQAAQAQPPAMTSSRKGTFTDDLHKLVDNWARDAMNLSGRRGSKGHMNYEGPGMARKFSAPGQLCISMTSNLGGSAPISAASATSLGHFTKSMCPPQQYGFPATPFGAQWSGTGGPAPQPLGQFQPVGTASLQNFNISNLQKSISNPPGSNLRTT
UniProt Q8TDX7, sequence (whole entry, looked up): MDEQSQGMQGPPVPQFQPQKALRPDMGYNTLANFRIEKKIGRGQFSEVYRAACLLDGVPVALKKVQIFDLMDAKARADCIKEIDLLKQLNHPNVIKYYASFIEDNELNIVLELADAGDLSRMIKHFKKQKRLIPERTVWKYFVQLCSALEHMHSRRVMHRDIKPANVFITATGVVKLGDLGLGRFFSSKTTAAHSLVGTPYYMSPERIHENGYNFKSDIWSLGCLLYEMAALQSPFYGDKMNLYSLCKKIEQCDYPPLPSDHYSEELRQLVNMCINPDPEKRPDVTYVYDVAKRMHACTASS
UniProt P41240, sequence (whole entry, looked up): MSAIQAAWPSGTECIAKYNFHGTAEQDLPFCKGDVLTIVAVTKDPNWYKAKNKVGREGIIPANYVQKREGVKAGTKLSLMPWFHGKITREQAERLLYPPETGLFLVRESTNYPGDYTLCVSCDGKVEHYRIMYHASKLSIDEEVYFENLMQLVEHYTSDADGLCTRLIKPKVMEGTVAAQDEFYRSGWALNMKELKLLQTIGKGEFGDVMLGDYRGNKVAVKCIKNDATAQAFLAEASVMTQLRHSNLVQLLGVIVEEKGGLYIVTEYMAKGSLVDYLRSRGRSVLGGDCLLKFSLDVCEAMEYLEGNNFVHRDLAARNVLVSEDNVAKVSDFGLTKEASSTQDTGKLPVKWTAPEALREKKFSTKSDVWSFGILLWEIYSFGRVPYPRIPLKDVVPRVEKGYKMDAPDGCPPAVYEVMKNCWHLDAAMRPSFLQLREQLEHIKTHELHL
UniProt Q9P286, sequence (whole entry, looked up): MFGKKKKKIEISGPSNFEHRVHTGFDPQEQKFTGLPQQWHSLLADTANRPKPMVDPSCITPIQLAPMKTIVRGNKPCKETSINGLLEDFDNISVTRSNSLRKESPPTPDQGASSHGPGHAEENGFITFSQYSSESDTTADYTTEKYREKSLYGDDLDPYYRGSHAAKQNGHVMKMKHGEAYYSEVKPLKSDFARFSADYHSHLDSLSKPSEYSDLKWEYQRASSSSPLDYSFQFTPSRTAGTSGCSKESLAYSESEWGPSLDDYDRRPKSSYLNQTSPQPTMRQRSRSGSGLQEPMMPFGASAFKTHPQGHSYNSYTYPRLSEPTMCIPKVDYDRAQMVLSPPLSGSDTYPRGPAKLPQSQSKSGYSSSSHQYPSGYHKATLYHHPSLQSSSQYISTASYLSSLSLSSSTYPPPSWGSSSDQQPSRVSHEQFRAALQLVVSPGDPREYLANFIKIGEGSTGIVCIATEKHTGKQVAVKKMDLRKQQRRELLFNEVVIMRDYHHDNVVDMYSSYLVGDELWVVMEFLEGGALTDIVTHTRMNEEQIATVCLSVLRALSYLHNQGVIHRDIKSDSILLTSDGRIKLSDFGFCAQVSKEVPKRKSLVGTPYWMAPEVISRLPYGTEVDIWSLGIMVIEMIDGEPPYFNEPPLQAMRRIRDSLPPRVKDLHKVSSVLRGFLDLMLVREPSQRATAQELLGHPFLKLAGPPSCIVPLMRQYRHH

Series 1
Target: Tyrosine-protein kinase SYK (SYK, Homo sapiens, UniProt P43405)
Read-out: enzyme activity
Action: inhibitor
Tested at: 0.5 µM
Baseline: control
Endpoint: remaining activity
Structure (SMILES) = O=C1NC(=O)/C(=C/c2ccc3c(c2)OC(F)(F)O3)S1; value = 95.3%
Structure (SMILES) = CCCCc1c(-c2ccc(O)cc2)[nH]c2nccnc12; value = 53.5%
Structure (SMILES) = CC(C)N(CCC(=O)c1ccc2ccccc2c1)Cc1ccccc1; value = 101%
Structure (SMILES) = FC(F)(F)c1ccc(/C=C/c2nc(COc3ccc(CCCCn4ccnn4)cc3)co2)cc1; value = 97.4%
Structure (SMILES) = O=C(O)/C=C/c1cc(Br)c(Br)c(Br)c1Br; value = 102%
Structure (SMILES) = O=C1c2ccccc2-c2nc3nnnn3nc21; value = 94.8%
Structure (SMILES) = N#CC(c1ccnc(NCCc2cccnc2)n1)c1nc2ccccc2s1 (stereo not shown); value = 92.4%
Structure (SMILES) = O=C(c1ccccc1)c1ccc(N2CCOCC2)cc1O; value = 96.6%
Structure (SMILES) = O=Nc1c(-c2c(O)[nH]c3ccccc23)[nH]c2ccccc12; value = 58.5%
Structure (SMILES) = O=c1c(-c2ccc(F)cc2)c(-c2ccncc2)[nH]n1-c1ccc(Cl)cc1; value = 98.9%
Structure (SMILES) = C[C@@H](N)[C@H]1CC[C@H](C(=O)Nc2ccncc2)CC1; value = 101%
Structure (SMILES) = COc1cc2c(N3CCN(C(=O)Nc4ccc(OC(C)C)cc4)CC3)ncnc2cc1OCCCN1CCCCC1; value = 102%
Structure (SMILES) = CC(C)(C)c1nc2c3cc[nH]c(=O)c3c3cc(F)ccc3c2[nH]1; value = 79%
Structure (SMILES) = Nc1nc(Nc2ccc(S(N)(=O)=O)cc2)nn1C(=S)Nc1c(F)cccc1F; value = 15.5%
Structure (SMILES) = Clc1ccc(Nc2nnc(Cc3ccncc3)c3ccccc23)cc1; value = 114%
Structure (SMILES) = CNc1cc2c(Nc3cccc(Br)c3)ncnc2cn1; value = 95.3%
Structure (SMILES) = CCN(CC)CCCCN1c2ccccc2Oc2ccc(Cl)cc21; value = 97.6%
Structure (SMILES) = c1cc(-c2cnn3cc(-c4ccc(OCCN5CCCCC5)cc4)cnc23)ccn1; value = 87.5%
Structure (SMILES) = CC(C)n1cnc2c(Nc3cccc(Cl)c3)nc(NCCO)nc21; value = 85.1%
Structure (SMILES) = NC(=O)c1cccc(-c2cc(Nc3ccc(OC(F)(F)F)cc3)ncn2)c1; value = 99.9%
Structure (SMILES) = NC(=O)c1ccc(-c2nc(-c3ccc4c(c3)OCCO4)c(-c3ccccn3)[nH]2)cc1; value = 99.9%

Series 2
Species: mouse
Sample: microsomes or S9
Tested at: 2 µM
Time: 0.5 h
Endpoint: remaining compound
Structure (SMILES) = CCN(CC)S(=O)(=O)c1ccc(S(=O)(=O)NCc2cccs2)cc1; value = 7.74%
Structure (SMILES) = CCCc1cc(=O)n2ncc(-c3ccc(Cl)cc3)c2[nH]1; value = > 99%
Structure (SMILES) = CC1(C)CC(Nc2ccc3nncn3n2)CC(C)(C)N1; value = 76.1%
Structure (SMILES) = CCOC(=O)CCS(=O)(=O)c1n[nH]c(NC(C)=O)n1; value = 50.7%
Structure (SMILES) = CC(C)COC(C)C(=O)NCCNC(=O)C(C)C (stereo not shown); value = 37.9%
Structure (SMILES) = Cc1csc(C2=C(O)CN(CCC(c3ccccc3)c3ccccc3)C2=N)n1; value = 0.349%
Structure (SMILES) = CCc1cc(N2CC[C@H](F)C2)n2nc(C)c(C)c2n1; value = 26.1%
Structure (SMILES) = Cc1cc(C)c(CNC(C)CCC(C)C)c(C)c1CO (stereo not shown); value = 2.26%
Structure (SMILES) = C/C=C/Cn1c(C(=O)c2cc(C)cc(C)c2)c(CC)c(NCCO)nc1=O; value = 19.6%
Structure (SMILES) = CC1(C)C=C(N(Cc2ncc[nH]2)c2ccc(Cl)c(Cl)c2)c2ccnc(Br)c2O1; value = 2.78%
Structure (SMILES) = CCOc1cc(C#N)ccc1OCc1nc(-c2cccs2)no1; value = 66.8%
Structure (SMILES) = CCN1CCCCC1CNc1nccc(-c2ccc(C)nc2C)n1 (stereo not shown); value = 20.4%
Structure (SMILES) = Cc1c(C)n2c3c(=O)[nH]c(=O)n(C)c3nc2n1Cc1ccco1; value = 19.7%
Structure (SMILES) = Fc1ccc(-c2ccc3ccnc(N4CCOCC4)c3c2)cc1Cl; value = 14.3%
Structure (SMILES) = CC1=CC(=O)c2ccccc2C1=O; value = 51.6%
Structure (SMILES) = O=C(c1ccoc1)N1CC(c2nnc(-c3ccncc3)o2)C2(CCOCC2)C1 (stereo not shown); value = 54.2%
Structure (SMILES) = Cc1cc(C)c(C2=C(NC(=O)C(C)C)C3(CCCC3)OC2=O)c(C)c1; value = 0.006%
Structure (SMILES) = CCN1CCN(CCNC(=O)c2ccc3c(c2)N(Cc2cccc(C)c2)C(=O)c2ccccc2S3(=O)=O)CC1; value = 2.23%
Structure (SMILES) = CC(=O)CCS(=O)(=O)c1ccc(-c2ccc(S(=O)(=O)CCC(C)=O)cc2)cc1; value = 8.67%
Structure (SMILES) = CCOC(=O)Nc1ccc(Br)c2ccc(OCc3ccccc3)c(CCCO)c12; value = 76.6%

Series 3
Compound: C=CC(=O)N1CCC[C@@H](n2nc(-c3ccc(Oc4ccccc4)cc3)c3c(N)ncnc32)C1
Action: inhibitor
Tested at: 1 µM
Endpoint: inhibition
target = MAP2K7 (Homo sapiens, UniProt O14733); assay = enzyme activity; value = 98%
target = MAPK13 (Homo sapiens, UniProt O15264); assay = enzyme activity; value = 6%
target = NEK7 (Homo sapiens, UniProt Q8TDX7); assay = enzyme activity; value = 4%
target = BRSK2 (Homo sapiens, UniProt Q8IWQ3); value = 13%
target = PRKD3 (Homo sapiens, UniProt O94806); assay = enzyme activity; value = 21%
target = PLK2 (Homo sapiens, UniProt Q9NYY3); assay = enzyme activity; value = 10%
target = PAK5 (Homo sapiens, UniProt Q9P286); assay = enzyme activity; value = 23%
target = CAMK2G (Homo sapiens, UniProt Q13555); assay = enzyme activity; value = 0%
target = COQ8B (Homo sapiens, UniProt Q96D53); assay = enzyme activity; value = 9%
target = ANKK1 (Homo sapiens, UniProt Q8NFD2); value = 21%
target = DCLK2 (Homo sapiens, UniProt Q8N568); assay = enzyme activity; value = 3%
target = Ribosomal protein S6 kinase alpha-1, kinase domain 1 (RPS6KA1, Homo sapiens, UniProt Q15418); value = 29%
target = CSK (Homo sapiens, UniProt P41240); value = 88%
target = PIP4K2C (Homo sapiens, UniProt Q8TBX8); value = 0%
target = EIF2AK4 (Homo sapiens, UniProt Q9P2K8, S808G); value = 8%
target = TBK1 (Homo sapiens, UniProt Q9UHD2); assay = enzyme activity; value = 9%
target = TAOK2 (Homo sapiens, UniProt Q9UL54); assay = enzyme activity; value = 30%
target = WNK1 (Homo sapiens, UniProt Q9H4A3); assay = enzyme activity; value = 23%

Series 4
Cell line: normal-adjacent epithelium patient-derived organoids sample H
Method: CellTiter-Glo
Tested at: 1 µM
Baseline: DMSO
Endpoint: viability
SMILES = Cc1cc2c(-c3ccco3)cnc(N[C@H]3CCN(C)C[C@@H]3C(=O)NC3CCCCC3)c2[nH]c1=O; value = 125%
SMILES = O=C(NCc1ccccc1)c1ccc(S(=O)(=O)NCc2ccccc2)cc1; value = 125% and 115%
SMILES = COc1cccc(NC(=O)c2nc3scc(CN(C)Cc4ccccc4)c3c(=O)[nH]2)c1; value = 135% and 95.7%
SMILES = Cc1ncc(-c2cc(Cl)ccc2F)cc1-n1c(=O)n(CC(N)=O)c2ccccc21; value = 104% and 99.8%
SMILES = COc1cccc2c1C(=O)c1c(O)c3c(c(O)c1C2=O)C[C@@](O)(C(=O)CO)C[C@@H]3O[C@H]1C[C@H](N)[C@H](O)[C@H](C)O1; value = 14.1%
SMILES = CCC(=NO)C(C)=Cc1ccc(F)c(C)c1; value = 113% and 106%
SMILES = CN1CCN(Cc2cc(NC(=O)c3ccc4c(c3)CN(c3ccccc3)CC4)cc(C(F)(F)F)c2)CC1; value = 91.8% and 53%
SMILES = CN(C)C(=O)Cn1cc(-c2ccc(-c3nnc4ccccn34)cc2)cn1; value = 96.8% and 138%
SMILES = COc1cc(Nc2nccc(-c3cnn4nc(OC)ccc34)n2)cc(C(F)(F)F)c1; value = 57%
SMILES = Cc1ccc(NC(=O)Nc2cc(C(F)(F)F)ccc2F)cc1Nc1ccc2c(c1)NC(=O)/C2=C\c1ccc[nH]1; value = 25.5%
SMILES = CC(=O)NCC(=O)N1[C@@H]2CC[C@H]1c1ccc(Nc3ncc(C(F)(F)F)c(NC4CCC4)n3)cc12; value = 18.2% and 11.4%

Excerpt of the above (series 1):
Structure (SMILES) = CC(C)N(CCC(=O)c1ccc2ccccc2c1)Cc1ccccc1; value = 101%
Structure (SMILES) = FC(F)(F)c1ccc(/C=C/c2nc(COc3ccc(CCCCn4ccnn4)cc3)co2)cc1; value = 97.4%
Structure (SMILES) = O=C(O)/C=C/c1cc(Br)c(Br)c(Br)c1Br; value = 102%
Structure (SMILES) = O=C1c2ccccc2-c2nc3nnnn3nc21; value = 94.8%
Structure (SMILES) = N#CC(c1ccnc(NCCc2cccnc2)n1)c1nc2ccccc2s1 (stereo not shown); value = 92.4%
